Measurements pooled from the literature.
Numbered parts are unrelated; each lists some results of a single study.

Block 1 — observed: enzyme activity; action: inhibitor; tested at: 0.5 µM; reference: control; measurement: remaining activity
Target: Proto-oncogene tyrosine-protein kinase receptor Ret (RET, Homo sapiens, UniProt P07949)
UniProt P07949, sequence (whole entry, looked up): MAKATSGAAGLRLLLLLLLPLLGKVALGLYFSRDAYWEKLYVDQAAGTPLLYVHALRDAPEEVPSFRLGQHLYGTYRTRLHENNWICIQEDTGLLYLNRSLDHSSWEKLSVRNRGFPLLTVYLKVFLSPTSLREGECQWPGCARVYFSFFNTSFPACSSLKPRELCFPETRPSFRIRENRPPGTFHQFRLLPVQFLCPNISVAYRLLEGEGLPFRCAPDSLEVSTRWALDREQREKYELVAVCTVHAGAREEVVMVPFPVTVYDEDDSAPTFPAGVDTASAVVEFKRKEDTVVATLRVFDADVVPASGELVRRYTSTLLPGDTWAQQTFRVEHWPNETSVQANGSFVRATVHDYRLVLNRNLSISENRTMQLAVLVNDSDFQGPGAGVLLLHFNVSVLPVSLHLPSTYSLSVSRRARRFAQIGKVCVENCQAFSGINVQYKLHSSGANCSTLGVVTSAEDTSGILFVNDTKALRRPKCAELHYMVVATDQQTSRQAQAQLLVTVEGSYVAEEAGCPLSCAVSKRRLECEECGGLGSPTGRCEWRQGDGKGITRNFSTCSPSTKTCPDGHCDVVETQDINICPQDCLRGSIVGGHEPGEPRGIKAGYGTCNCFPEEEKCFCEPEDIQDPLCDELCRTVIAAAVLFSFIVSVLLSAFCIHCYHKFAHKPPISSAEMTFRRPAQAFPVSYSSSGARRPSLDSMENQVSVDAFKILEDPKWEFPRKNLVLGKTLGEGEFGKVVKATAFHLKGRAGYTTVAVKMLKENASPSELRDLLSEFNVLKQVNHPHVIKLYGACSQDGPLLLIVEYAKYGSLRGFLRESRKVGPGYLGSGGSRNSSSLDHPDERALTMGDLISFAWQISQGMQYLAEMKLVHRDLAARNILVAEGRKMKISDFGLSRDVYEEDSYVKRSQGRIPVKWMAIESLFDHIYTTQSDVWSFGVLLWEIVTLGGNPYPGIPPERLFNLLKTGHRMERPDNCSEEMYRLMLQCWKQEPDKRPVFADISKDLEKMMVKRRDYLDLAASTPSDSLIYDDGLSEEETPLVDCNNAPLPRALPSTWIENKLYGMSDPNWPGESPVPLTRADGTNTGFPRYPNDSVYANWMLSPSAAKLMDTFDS
SMILES = O=C1Cc2c([nH]c3ccc(Br)cc23)-c2ccccc2N1; result = 102%
SMILES = NC(=O)c1cccc(-c2cc(Nc3ccc(OC(F)(F)F)cc3)ncn2)c1; result = 105%
SMILES = CN(C)S(=O)(=O)c1ccc2c(c1)/C(=C/c1cc3c([nH]1)CCCC3)C(=O)N2; result = 6.29%
SMILES = CCCCc1c(-c2ccc(O)cc2)[nH]c2nccnc12; result = 52.6%
SMILES = O=Nc1c(-c2c(O)[nH]c3cc(Br)ccc23)[nH]c2ccccc12; result = 0.0602%
SMILES = c1ccc(-c2n[nH]c3c2oc2ccccc23)cc1; result = 78.2%
SMILES = CC(C)n1cnc2c(Nc3cccc(Cl)c3)nc(NCCO)nc21; result = 82.9%
SMILES = Cc1ccc(S(=O)(=O)/C=C/C#N)cc1; result = 102%
SMILES = N#CC(c1ccnc(NCCc2cccnc2)n1)c1nc2ccccc2s1 (stereo not drawn); result = 70.1%
SMILES = O=c1c(-c2ccc(F)cc2)c(-c2ccncc2)[nH]n1-c1ccc(Cl)cc1; result = 99.6%
SMILES = O=C1NC(=O)c2c1c1c3ccccc3[nH]c1n1cncc21; result = 42%
SMILES = O=C1NC(=O)/C(=C/c2ccc3c(c2)OC(F)(F)O3)S1; result = 102%
SMILES = O=Nc1c(-c2c(O)[nH]c3ccccc23)[nH]c2ccccc12; result = 8.05%
SMILES = Clc1ccc(Nc2nnc(Cc3ccncc3)c3ccccc23)cc1; result = 89.1%
SMILES = FC(F)(F)c1ccc(/C=C/c2nc(COc3ccc(CCCCn4ccnn4)cc3)co2)cc1; result = 101%
SMILES = Cc1cc(Nc2cc(N3CCN(C)CC3)nc(Sc3ccc(NC(=O)C4CC4)cc3)n2)[nH]n1; result = 3.91%
SMILES = CC(C)N(CCC(=O)c1ccc2ccccc2c1)Cc1ccccc1; result = 101%
SMILES = N#Cc1cnc2cnc(NCc3cccnc3)cc2c1Nc1ccc(F)c(Cl)c1; result = 107%
SMILES = O=C1NC(=O)c2c1c1c3ccccc3[nH]c1c1[nH]c3cc(Br)ccc3c21; result = 80.1%
SMILES = O=C1Nc2ccccc2/C1=C\c1c(Cl)[nH]c2ccccc12; result = 93%
SMILES = c1cc(-c2cnn3cc(-c4ccc(OCCN5CCCCC5)cc4)cnc23)ccn1; result = 32.2%
SMILES = O=c1cc(N2CCOCC2)oc2c(-c3ccccc3)cccc12; result = 99.2%
SMILES = c1ccc2c(-c3ccncc3)c[nH]c2c1; result = 97.3%
SMILES = CC(C)(C)c1nc2c3cc[nH]c(=O)c3c3cc(F)ccc3c2[nH]1; result = 18.3%
SMILES = CCN(CC)CCCCN1c2ccccc2Oc2ccc(Cl)cc21; result = 96.3%

Block 2 — technique: PRP chromatography; notes: linear fit, 1 mL; measurement: logD 1,9-decadiene/water
SMILES = CC(C)C[C@@H]1NC(=O)[C@H](CC(C)C)NC(=O)[C@@H](CC(C)C)NC(=O)[C@H](Cc2cscn2)NC(=O)[C@@H](CCC(=O)N2CCCC2)NC(=O)[C@H](Cc2cscn2)NC(=O)[C@H](C)NC1=O; result = -2.53 log units
SMILES = CC(C)C[C@@H]1NC(=O)[C@H](CC(C)C)NC(=O)[C@H](CC(C)C)NC(=O)[C@H](C(C)C)NC(=O)[C@H](C)NC(=O)[C@H](CCC(=O)N2CCCC2)NC(=O)[C@H](C)NC1=O; result = -1.84 log units
SMILES = CC(C)C[C@@H]1NC(=O)[C@H](Cc2cscn2)NC(=O)[C@H](CCC(=O)N2CCCC2)NC(=O)[C@H](CCC(=O)N2CCCC2)NC(=O)[C@@H](Cc2cscn2)NC(=O)[C@H](CC(C)C)NC(=O)[C@@H](CC(C)C)NC1=O; result = -2.14 log units
SMILES = CC(C)C[C@@H]1NC(=O)[C@H](CC(C)C)NC(=O)[C@H](CC(C)C)NC(=O)[C@H](CC(C)C)NC(=O)[C@@H](Cc2cscn2)NC(=O)[C@H](CCC(=O)N2CCCC2)NC(=O)[C@H](C)NC1=O; result = -0.619 log units
SMILES = CC(C)C[C@@H]1NC(=O)[C@H](C)NC(=O)[C@H](CCC(=O)N2CCCC2)NC(=O)[C@H](CC(C)C)NC(=O)[C@@H](Cc2cscn2)NC(=O)[C@H](CC(C)C)NC(=O)[C@@H](CC(C)C)NC1=O; result = 0.153 log units
SMILES = CC(C)C[C@@H]1NC(=O)[C@H](Cc2cscn2)NC(=O)[C@H](C)NC(=O)[C@H](CC(C)C)NC(=O)[C@@H](CCC(=O)N2CCCC2)NC(=O)[C@H](CC(C)C)NC(=O)[C@@H](CC(C)C)NC1=O; result = -1.32 log units

Block 3 — measurement: patients with adverse event
SMILES: CC(C)n1cnc(-c2ccc(F)cc2)c1-c1ncc(C(=O)Nc2ccc(N3CCN(C)CC3)cc2)[nH]1
test = Phase 2a trial, item: eosinophilia myalgia syndrome; system = human, idiopathic pulmonary fibrosis; setting = all compound arms, grade 3; result = 0%
test = Phase 2a trial, item: blood glucose increased; system = human, idiopathic pulmonary fibrosis; setting = 30 mg once daily, grade 5; result = 0%
test = Phase 2a trial, item: blood creatinine increased; system = human, idiopathic pulmonary fibrosis; setting = 30 mg once daily, grade 1; result = 0%
test = item: periorbital oedema, grade 2; system = idiopathic pulmonary fibrosis patients; setting = oral, 60 mg once daily; result = 0%
test = Phase 2a trial, item: hyperlipidaemia; system = human, idiopathic pulmonary fibrosis; setting = 60 mg once daily, grade 3; result = 0%
test = Phase 2a trial, item: blood pressure increased; system = human, idiopathic pulmonary fibrosis; setting = 30 mg once daily, grade 4; result = 0%
test = Phase 2a trial, item: hypertriglyceridaemia; system = human, idiopathic pulmonary fibrosis; setting = 60 mg once daily, grade 2; result = 0%

Block 4 — cell line: A-375; tested at: 100 µM; time: 36 h; measurement: viability
SMILES = O=C(O)c1ccccc1C(=O)Nc1ccc(S(=O)(=O)Nc2nccs2)cc1; result = 125%
SMILES = CC(=O)SCC(Cc1ccccc1)C(=O)NCC(=O)OCc1ccccc1 (stereo not drawn); result = 105%
SMILES = CO[C@@]1(NC(=O)CSCC#N)C(=O)N2C(C(=O)O)=C(CSc3nnnn3C)CS[C@@H]21; result = 100%
SMILES = Nc1ccc(S(=O)(=O)NC(=O)c2ccccc2)cc1; result = 108%
SMILES = CN(C)CCC(c1ccc(Br)cc1)c1ccccn1 (stereo not drawn); result = 76%
SMILES = C[C@H]1O[C@H](O[C@H]2[C@H](O)[C@@H](O)[C@@H](O[C@H]3[C@H](O)[C@@H](O)C(O)O[C@@H]3CO)O[C@@H]2CO)[C@H](O)[C@@H](O)[C@@H]1N[C@H]1C=C(CO)[C@@H](O)[C@H](O)[C@H]1O (stereo partly drawn); result = 110%

Block 5 — observed: ligand displacement; technique: radioligand; tested at: 10 µM; measurement: inhibition
Target: 5-hydroxytryptamine receptor 1B (HTR1B, Homo sapiens, UniProt P28222)
UniProt P28222, sequence (whole entry, looked up): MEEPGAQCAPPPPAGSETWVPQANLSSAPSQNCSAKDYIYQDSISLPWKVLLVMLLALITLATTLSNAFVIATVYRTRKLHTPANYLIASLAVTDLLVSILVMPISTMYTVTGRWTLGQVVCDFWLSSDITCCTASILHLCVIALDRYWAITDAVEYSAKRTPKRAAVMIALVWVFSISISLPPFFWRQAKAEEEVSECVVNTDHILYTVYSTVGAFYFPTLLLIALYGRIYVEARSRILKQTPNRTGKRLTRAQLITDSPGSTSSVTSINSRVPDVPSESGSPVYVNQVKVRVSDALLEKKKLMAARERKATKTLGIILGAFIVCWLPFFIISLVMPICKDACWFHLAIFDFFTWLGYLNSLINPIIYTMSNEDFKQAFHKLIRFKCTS
Compound = CN([C@@H]1CCc2c(CC(=O)O)c3ccccc3n2C1)S(=O)(=O)c1ccc(F)cc1; result = 35.6%
Compound = CCc1ccccc1C(=O)Nc1n[nH]c2c(C)c(F)c(C3C(C#N)=C(C)N(C)C(C)=C3C#N)cc12; result = 9.48%
Compound = Cc1c(NC(=O)c2cc(C(N)=O)nc3cc(F)ccc23)c(C(F)(F)F)nn1Cc1ccc(C(C)(C)C)cc1; result = -7.67%
Compound = O=C(NC[C@@H]1[C@H]2CN(C(=O)OCc3cc(C(F)(F)F)cc(C(F)(F)F)c3)C[C@@H]12)c1ccc2[nH]nnc2c1; result = 17.9%
Compound = C[C@H](NC(=O)c1cnc2n1[C@](C)(Cc1ccc(C#N)cc1)C(=O)N2c1cc(Cl)c(F)c(Cl)c1)C(=O)NC1(c2ccccn2)CC1; result = 16.5%
Compound = CCOC(=O)c1cc2cc(-c3cc(C(=O)NCc4ccc(C(=O)O)cc4)nn3C)ccc2[nH]1; result = 6.12%
Compound = Cc1ccc(-c2cnc([C@@]3(O)CC[C@H](C(=O)O)C(C)(C)C3)s2)cc1Nc1cccc(C(F)(F)F)n1; result = 20.2%
Compound = C[C@H](NC(=O)Nc1cc2[nH]ncc2c(CO)n1)c1ccccn1; result = -11.6%
Compound = c1ccc(N2CCN(Cc3nc4ccccc4[nH]3)CC2)nc1; result = 7.3%
Compound = O=c1nc(-c2ccccn2)sc2ccccc12; result = -1.9%
